Results gathered from unrelated publications.
Protocols differ between the studies behind these lines. ≈ marks a conversion by molar mass, not a printed value.

O=C(c1ccc(Cl)c(Cl)c1)N1CCCC2=CC3CC(CN4CCCCC34)C21 (centres unmarked)  EC50 (vesicular stomatitis virus; pseudovirus entry; VSV G pseudovirus): 48.7 µM
COc1ccc(CCNc2cc(-c3ccccc3)nc3ncnn23)cc1  MIC (Mycobacterium tuberculosis variant bovis BCG; microbial growth; THP-1, BCG; intracellular): > 10 µM
Fc1ccc(F)c(-c2ccc(Cn3ccnc3)c(F)c2)c1  MIC50 (Mycobacterium tuberculosis variant bovis BCG; microbial growth; BCG): 1 µg/mL (≈ 3.47 µM)
CC(=C(c1ccc(Cl)cc1)c1ccc(OCCN2CCCCC2)cc1)c1ccc(Cl)cc1  EC50 (influenza A virus H1N1; cytopathic effect, visual CPE; MDCK): > 63 µg/mL
Fc1ccc(-c2ccc(Cn3ccnc3)c(F)c2)c(F)c1  MIC50 (Mycobacterium tuberculosis variant bovis BCG; microbial growth; BCG): 1.2 µg/mL (≈ 4.16 µM)
CCc1ccc([C@@H]2C[C@H](C(F)(F)F)n3ncc(C(=O)NCc4ccc(OC)cc4)c3N2)cc1  MIC (Mycobacterium tuberculosis variant bovis BCG; microbial growth; BCG): 2.7 µM (≈ 1.24 µg/mL)
Cc1cc(C)cc(NC(=O)N2CCCC3=CC4CC(CN5CCCCC45)C32)c1 (centres unmarked)  EC50 (vesicular stomatitis virus; pseudovirus entry; VSV G pseudovirus): 94.9 µM
CCCCCCCCCC(=O)NCC(=O)N[C@@H](CC(C)C)C(=O)N[C@@H](CC(C)C)C(=O)N[C@@H](CCCCN)C(=O)N[C@@H](CCCNC(=N)N)C(=O)N[C@H](C(=O)N[C@@H](CCCCN)C(=O)N[C@H](C(=O)N[C@@H](CC(C)C)C(=O)N[C@@H](CC(C)C)C(=O)NCCCC[C@H](NC(=O)[C@H](CC(C)C)NC(=O)[C@H](CC(C)C)NC(=O)[C@@H](NC(=O)[C@H](CCCCN)NC(=O)[C@@H](NC(=O)[C@H](CCCNC(=N)N)NC(=O)[C@H](CCCCN)NC(=O)[C@H](CC(C)C)NC(=O)[C@H](CC(C)C)NC(=O)CNC(=O)CCCCCCCCC)[C@@H](C)CC)[C@@H](C)O)C(N)=O)[C@@H](C)O)[C@@H](C)CC  geometric mean MIC (five bacterial species; bacterial growth): 169 µM
COc1ccc2nc(C)cc(OCC(=O)Nc3ccccc3OC)c2c1  MIC (Mycobacterium tuberculosis variant bovis BCG; microbial growth; THP-1, BCG; intracellular): > 10 µM
CCCCCCCC(=O)NCC(=O)N[C@@H](CC(C)C)C(=O)N[C@@H](CC(C)C)C(=O)N[C@@H](CCCCN)C(=O)N[C@@H](CCCNC(=N)N)C(=O)N[C@H](C(=O)N[C@@H](CCCCN)C(=O)N[C@H](C(=O)N[C@@H](CC(C)C)C(=O)N[C@@H](CC(C)C)C(=O)NCCCC[C@H](NC(=O)[C@H](CCCCNC(=O)[C@H](CC(C)C)NC(=O)[C@H](CC(C)C)NC(=O)[C@@H](NC(=O)[C@H](CCCCN)NC(=O)[C@@H](NC(=O)[C@H](CCCNC(=N)N)NC(=O)[C@H](CCCCN)NC(=O)[C@H](CC(C)C)NC(=O)[C@H](CC(C)C)NC(=O)CNC(=O)CCCCCCC)[C@@H](C)CC)[C@@H](C)O)NC(=O)[C@H](CC(C)C)NC(=O)[C@H](CC(C)C)NC(=O)[C@@H](NC(=O)[C@H](CCCCN)NC(=O)[C@@H](NC(=O)[C@H](CCCNC(=N)N)NC(=O)[C@H](CCCCN)NC(=O)[C@H](CC(C)C)NC(=O)[C@H](CC(C)C)NC(=O)CNC(=O)CCCCCCC)[C@@H](C)CC)[C@@H](C)O)C(N)=O)[C@@H](C)O)[C@@H](C)CC  geometric mean MIC (five bacterial species; bacterial growth): 42.2 µM
COc1ccc(CC(C)=C(c2ccc(Cl)cc2)c2ccc(OCCCN(C)C)cc2)cc1  EC50 (influenza A virus H1N1; cytopathic effect, visual CPE; MDCK): > 3.2 µg/mL

Excerpt of the above:
COc1ccc(CCNc2cc(-c3ccccc3)nc3ncnn23)cc1  MIC (Mycobacterium tuberculosis variant bovis BCG; microbial growth; THP-1, BCG; intracellular): > 10 µM
Fc1ccc(F)c(-c2ccc(Cn3ccnc3)c(F)c2)c1  MIC50 (Mycobacterium tuberculosis variant bovis BCG; microbial growth; BCG): 1 µg/mL (≈ 3.47 µM)
